Published values collected from several papers.
Numbered parts are unrelated; each lists some results of a single study. Positions count from the first letter of the parent shown.
Sequence of UniProt Q9UK32 (whole entry, looked up): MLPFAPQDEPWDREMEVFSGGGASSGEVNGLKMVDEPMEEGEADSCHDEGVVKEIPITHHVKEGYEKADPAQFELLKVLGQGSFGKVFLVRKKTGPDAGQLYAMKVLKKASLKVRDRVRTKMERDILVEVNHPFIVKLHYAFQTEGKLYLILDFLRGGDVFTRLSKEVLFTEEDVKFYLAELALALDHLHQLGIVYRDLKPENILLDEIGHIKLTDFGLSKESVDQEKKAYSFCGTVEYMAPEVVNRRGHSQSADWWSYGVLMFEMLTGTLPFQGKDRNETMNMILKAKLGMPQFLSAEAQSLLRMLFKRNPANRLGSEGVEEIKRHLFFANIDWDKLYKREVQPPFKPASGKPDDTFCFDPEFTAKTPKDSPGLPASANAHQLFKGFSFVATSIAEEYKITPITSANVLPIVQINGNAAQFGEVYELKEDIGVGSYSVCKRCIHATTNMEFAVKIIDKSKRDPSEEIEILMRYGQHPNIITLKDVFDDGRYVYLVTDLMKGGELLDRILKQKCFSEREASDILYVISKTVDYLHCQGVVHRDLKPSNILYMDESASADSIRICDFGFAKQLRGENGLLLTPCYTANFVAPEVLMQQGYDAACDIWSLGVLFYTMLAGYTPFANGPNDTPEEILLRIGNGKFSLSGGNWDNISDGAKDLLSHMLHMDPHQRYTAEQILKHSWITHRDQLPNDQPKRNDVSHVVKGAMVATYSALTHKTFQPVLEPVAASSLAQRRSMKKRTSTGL
Sequence of UniProt Q8TD08 (whole entry, looked up): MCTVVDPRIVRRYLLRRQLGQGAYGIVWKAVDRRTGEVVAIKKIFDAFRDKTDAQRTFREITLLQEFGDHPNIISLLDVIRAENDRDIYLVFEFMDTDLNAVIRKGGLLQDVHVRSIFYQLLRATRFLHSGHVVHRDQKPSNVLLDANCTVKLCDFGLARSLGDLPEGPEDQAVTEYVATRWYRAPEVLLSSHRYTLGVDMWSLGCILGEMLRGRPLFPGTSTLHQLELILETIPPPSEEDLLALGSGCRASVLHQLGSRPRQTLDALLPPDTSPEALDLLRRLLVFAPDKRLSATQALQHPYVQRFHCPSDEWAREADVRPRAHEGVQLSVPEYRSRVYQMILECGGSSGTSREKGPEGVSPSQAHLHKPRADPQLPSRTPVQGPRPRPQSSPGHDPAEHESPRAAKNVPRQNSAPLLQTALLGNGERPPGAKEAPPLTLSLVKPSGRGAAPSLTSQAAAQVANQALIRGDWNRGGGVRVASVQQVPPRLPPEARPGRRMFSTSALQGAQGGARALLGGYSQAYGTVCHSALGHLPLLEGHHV
Sequence of UniProt Q9H3Y6 (whole entry, looked up): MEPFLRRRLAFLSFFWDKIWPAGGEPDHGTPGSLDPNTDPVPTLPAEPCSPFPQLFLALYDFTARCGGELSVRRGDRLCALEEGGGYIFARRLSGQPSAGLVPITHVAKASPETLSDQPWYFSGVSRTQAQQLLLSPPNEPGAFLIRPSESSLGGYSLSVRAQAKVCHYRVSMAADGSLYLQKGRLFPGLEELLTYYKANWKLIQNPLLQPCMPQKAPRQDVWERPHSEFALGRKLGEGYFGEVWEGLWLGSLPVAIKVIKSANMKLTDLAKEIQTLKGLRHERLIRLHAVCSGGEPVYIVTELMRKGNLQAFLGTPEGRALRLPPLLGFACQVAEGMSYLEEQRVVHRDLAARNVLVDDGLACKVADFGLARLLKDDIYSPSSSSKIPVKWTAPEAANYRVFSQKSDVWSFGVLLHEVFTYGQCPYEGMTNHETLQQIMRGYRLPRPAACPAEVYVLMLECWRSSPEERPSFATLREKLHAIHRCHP
Sequence of UniProt O95819 (whole entry, looked up): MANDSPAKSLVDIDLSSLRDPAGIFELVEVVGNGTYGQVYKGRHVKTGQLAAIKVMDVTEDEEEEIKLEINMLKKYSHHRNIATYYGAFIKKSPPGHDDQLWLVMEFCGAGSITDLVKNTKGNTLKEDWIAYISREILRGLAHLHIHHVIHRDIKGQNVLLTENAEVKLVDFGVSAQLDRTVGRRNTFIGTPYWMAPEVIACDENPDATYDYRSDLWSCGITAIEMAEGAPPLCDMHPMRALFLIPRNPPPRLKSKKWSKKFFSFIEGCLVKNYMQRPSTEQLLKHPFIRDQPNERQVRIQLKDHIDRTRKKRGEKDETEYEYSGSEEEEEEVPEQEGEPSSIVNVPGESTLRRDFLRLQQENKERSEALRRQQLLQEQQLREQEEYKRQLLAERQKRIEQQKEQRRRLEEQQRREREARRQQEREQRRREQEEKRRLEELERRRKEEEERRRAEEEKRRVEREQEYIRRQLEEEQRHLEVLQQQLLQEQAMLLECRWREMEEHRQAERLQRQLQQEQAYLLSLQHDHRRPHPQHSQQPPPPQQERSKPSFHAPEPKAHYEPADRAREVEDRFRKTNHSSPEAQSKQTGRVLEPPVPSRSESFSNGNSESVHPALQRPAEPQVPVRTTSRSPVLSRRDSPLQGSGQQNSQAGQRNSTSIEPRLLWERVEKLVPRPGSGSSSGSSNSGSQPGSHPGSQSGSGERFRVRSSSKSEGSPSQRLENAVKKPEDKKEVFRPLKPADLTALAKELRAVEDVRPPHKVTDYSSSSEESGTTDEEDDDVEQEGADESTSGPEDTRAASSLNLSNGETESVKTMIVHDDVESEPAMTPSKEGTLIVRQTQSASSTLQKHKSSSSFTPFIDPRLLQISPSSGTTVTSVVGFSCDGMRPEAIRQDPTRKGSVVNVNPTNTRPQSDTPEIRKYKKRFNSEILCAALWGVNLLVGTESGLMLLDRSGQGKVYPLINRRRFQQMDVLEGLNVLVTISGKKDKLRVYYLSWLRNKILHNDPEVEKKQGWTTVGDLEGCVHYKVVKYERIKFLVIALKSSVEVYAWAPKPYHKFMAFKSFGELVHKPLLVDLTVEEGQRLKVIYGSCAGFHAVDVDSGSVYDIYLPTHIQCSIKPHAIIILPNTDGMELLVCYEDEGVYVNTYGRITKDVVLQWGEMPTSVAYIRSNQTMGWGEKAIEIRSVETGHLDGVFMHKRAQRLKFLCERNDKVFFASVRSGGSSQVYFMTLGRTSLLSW
Sequence of UniProt Q9UEE5 (whole entry, looked up): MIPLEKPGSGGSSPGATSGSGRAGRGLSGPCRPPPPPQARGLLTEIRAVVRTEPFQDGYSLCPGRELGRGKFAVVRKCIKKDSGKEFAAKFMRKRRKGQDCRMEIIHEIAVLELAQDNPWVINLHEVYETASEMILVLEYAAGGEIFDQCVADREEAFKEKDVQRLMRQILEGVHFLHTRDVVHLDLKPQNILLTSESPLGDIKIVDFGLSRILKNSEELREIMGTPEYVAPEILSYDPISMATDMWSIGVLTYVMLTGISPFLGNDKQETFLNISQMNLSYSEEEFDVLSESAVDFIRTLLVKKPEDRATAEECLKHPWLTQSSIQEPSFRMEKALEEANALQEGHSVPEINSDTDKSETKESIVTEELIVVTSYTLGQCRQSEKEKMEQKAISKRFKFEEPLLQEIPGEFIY
Sequence of UniProt O75582 (whole entry, looked up): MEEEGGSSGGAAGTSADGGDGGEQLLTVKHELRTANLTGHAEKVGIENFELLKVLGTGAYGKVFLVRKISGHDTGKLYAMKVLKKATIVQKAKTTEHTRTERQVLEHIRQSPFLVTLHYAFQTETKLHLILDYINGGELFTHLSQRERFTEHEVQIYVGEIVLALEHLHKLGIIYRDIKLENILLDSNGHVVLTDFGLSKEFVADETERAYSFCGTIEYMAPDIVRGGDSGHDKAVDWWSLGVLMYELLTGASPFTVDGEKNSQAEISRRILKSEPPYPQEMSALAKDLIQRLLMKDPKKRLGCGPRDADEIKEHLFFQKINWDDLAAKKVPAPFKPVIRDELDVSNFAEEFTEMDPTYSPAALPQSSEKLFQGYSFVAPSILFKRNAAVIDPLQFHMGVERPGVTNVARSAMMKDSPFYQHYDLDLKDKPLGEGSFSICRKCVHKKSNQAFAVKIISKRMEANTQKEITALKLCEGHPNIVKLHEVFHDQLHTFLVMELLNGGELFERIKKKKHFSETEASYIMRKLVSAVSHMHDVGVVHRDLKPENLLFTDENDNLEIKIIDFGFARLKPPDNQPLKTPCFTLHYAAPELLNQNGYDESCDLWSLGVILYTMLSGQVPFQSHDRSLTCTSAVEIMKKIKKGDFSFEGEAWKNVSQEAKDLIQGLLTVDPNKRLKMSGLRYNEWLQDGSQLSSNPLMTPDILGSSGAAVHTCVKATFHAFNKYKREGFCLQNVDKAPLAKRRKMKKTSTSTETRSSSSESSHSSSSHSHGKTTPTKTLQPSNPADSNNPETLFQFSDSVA
Sequence of UniProt P24723 (whole entry, looked up): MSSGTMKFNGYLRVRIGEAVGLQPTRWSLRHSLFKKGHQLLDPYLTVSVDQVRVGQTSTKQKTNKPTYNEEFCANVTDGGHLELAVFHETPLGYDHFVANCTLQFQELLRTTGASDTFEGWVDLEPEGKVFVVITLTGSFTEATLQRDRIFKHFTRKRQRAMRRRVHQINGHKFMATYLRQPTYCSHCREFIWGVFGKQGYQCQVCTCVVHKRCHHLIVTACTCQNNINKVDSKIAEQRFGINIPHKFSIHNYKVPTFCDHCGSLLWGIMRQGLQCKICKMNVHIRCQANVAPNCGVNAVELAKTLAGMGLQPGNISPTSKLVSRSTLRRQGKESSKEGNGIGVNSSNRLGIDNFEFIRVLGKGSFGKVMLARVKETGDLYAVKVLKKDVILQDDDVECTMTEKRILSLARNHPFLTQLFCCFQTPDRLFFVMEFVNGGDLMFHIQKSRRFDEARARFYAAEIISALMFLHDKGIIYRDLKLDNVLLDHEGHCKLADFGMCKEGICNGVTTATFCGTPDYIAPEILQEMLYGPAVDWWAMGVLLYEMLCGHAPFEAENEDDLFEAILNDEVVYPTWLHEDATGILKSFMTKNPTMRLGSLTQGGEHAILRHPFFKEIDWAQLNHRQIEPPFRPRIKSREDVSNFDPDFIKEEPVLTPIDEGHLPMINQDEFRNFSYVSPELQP

Study 1 — target: HLF, bZIP domain (human); method: DHFR protein complementation; medium: yeast; reference: wild-type JUN-FOS pair; reading: higher = stronger binding; measurement: binding fitness
Setting: single substitutions, most at no-binding floor
Starting sequence: JUN, bZIP domain (human); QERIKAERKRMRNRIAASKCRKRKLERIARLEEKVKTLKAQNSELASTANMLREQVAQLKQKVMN; partner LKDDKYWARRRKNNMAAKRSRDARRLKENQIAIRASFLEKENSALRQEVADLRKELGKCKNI
A29M: -1.47 natural log
E54W: -1.5 natural log
L59R: -1.45 natural log
A29Y: -1.45 natural log
L52R: -1.54 natural log
A29W: -1.48 natural log
E33A: -1.45 natural log
V56G: -1.5 natural log

Study 2 — effect on: cell-free assay; method: competition with immobilised ligand; concentration: 1 µM; measurement: remaining binding
Compound: CC(=O)N1CCC(c2ccc(C(=O)NC3=NCCN3)cc2C(F)(F)F)CC1
Mitogen-activated protein kinase 15 (MAPK15, Homo sapiens, UniProt Q8TD08): 100%
Protein kinase C eta type (PRKCH, Homo sapiens, UniProt P24723): 100%
Mitogen-activated protein kinase kinase kinase 10 (MAP3K10, Homo sapiens, UniProt Q02779): 100%
Serine/threonine-protein kinase ULK3 (ULK3, Homo sapiens, UniProt Q6PHR2): 89%
Serine/threonine-protein kinase pim-2 (PIM2, Homo sapiens, UniProt Q9P1W9): 100%
MAP/microtubule affinity-regulating kinase 3 (MARK3, Homo sapiens, UniProt P27448): 100%

Study 3 — effect on: enzyme activity; action: inhibitor; concentration: 0.5 µM; reference: control; measurement: remaining activity
SMILES: O=C1Cc2c([nH]c3ccc([N+](=O)[O-])cc23)-c2ccccc2N1
MAP kinase-activated protein kinase 3 (MAPKAPK3, Homo sapiens, UniProt Q16644): 97%
Serine/threonine-protein kinase 17A (STK17A, Homo sapiens, UniProt Q9UEE5): 46.4%
3-phosphoinositide-dependent protein kinase 1 (PDPK1, Homo sapiens, UniProt O15530): 93.7%
Homeodomain-interacting protein kinase 2 (HIPK2, Homo sapiens, UniProt Q9H2X6): 110%
Ribosomal protein S6 kinase alpha-5 (RPS6KA5, Homo sapiens, UniProt O75582): 107%
Tyrosine-protein kinase ABL1 (ABL1, Homo sapiens, UniProt P00519): 57.7%
Ephrin type-B receptor 4 (EPHB4, Homo sapiens, UniProt P54760): 87.2%
Testis-specific serine/threonine-protein kinase 2 (TSSK2, Homo sapiens, UniProt Q96PF2): 88.3%
Tyrosine-protein kinase receptor UFO (AXL, Homo sapiens, UniProt P30530): 100%
Mitogen-activated protein kinase kinase kinase kinase 4 (MAP4K4, Homo sapiens, UniProt O95819): 4.47%
Tyrosine-protein kinase Srms (SRMS, Homo sapiens, UniProt Q9H3Y6): 92.9%
Ribosomal protein S6 kinase alpha-6 (RPS6KA6, Homo sapiens, UniProt Q9UK32): 38%
Ephrin type-B receptor 1 (EPHB1, Homo sapiens, UniProt P54762): 112%

Study 4 — method: competition protein-binding microarray; molecule type: double-stranded DNA, one strand shown; medium: in vitro; concentration: 2 µM; with: Cbf1 competitor, 0.05 µM; reading: higher = stronger binding; measurement: fluorescence intensity; shared flanks, not repeated: … GTCTTGATTCGCTTGACGCTGCTG
Target: Phosphate system positive regulatory protein PHO4, full length, GST-tagged (PHO4, Saccharomyces cerevisiae, UniProt P07270, residues 1-312)
Setting: whole 60-bp probe, lowest competitor level
Residues (chain): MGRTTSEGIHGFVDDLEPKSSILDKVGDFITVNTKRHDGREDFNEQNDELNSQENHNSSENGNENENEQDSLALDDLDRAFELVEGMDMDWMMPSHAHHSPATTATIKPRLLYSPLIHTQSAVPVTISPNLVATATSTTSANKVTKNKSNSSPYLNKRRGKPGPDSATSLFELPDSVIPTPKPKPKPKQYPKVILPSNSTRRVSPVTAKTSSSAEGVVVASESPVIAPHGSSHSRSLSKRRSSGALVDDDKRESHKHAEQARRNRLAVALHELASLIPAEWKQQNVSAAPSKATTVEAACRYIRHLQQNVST
TTATCGTTGTGTAACCACGTAGAGAATCCCTTATAA: 5140 a.u.
AAATTACTAAGTTTTCACGTGTTATACCCCGTATGA: 12300 a.u.
CTGCAAGGAAGTTTAAGCGTGGGTAACTTTGCTAGG: 7510 a.u.
ATCACCCCGGTCCCGCACGTGTTCCTGTGCTCCCCT: 20700 a.u.
CGGGGTTAAGTTTGTCGGGTGGGTGGCTTGCAGCAG: 3990 a.u.
CAGTATTTATCAGTTCTCGAGCAAGCAGAGAAAAGT: 3900 a.u.
CTTCTGTAAATTTTTCACGTGAGGTGAAGCGCCCCG: 10300 a.u.
GCTTTCGTACTGCTCCAGGTGTGGCTTGATGTCCTA: 4000 a.u.

Repeated from above (study 3):
Tyrosine-protein kinase Srms (SRMS, Homo sapiens, UniProt Q9H3Y6): 92.9%
Ribosomal protein S6 kinase alpha-5 (RPS6KA5, Homo sapiens, UniProt O75582): 107%
Homeodomain-interacting protein kinase 2 (HIPK2, Homo sapiens, UniProt Q9H2X6): 110%
